Assay results pooled from the literature.
Compare with care: the assays were run in different laboratories. Numbers after ± are the reported error.
ESR1: Estrogen receptor (ESR1, Homo sapiens, UniProt P03372)
APP amyloid-beta peptide: Amyloid-beta precursor protein, amyloid-beta peptide (APP, Homo sapiens, UniProt P05067)

Protein sequences, listed by entry. Tags and fused reporters are not part of them. Lines headed by an entry give the natural chain unless they say otherwise; changes in a name come on top. Residues count along the entry.
UniProt P03372, whole entry: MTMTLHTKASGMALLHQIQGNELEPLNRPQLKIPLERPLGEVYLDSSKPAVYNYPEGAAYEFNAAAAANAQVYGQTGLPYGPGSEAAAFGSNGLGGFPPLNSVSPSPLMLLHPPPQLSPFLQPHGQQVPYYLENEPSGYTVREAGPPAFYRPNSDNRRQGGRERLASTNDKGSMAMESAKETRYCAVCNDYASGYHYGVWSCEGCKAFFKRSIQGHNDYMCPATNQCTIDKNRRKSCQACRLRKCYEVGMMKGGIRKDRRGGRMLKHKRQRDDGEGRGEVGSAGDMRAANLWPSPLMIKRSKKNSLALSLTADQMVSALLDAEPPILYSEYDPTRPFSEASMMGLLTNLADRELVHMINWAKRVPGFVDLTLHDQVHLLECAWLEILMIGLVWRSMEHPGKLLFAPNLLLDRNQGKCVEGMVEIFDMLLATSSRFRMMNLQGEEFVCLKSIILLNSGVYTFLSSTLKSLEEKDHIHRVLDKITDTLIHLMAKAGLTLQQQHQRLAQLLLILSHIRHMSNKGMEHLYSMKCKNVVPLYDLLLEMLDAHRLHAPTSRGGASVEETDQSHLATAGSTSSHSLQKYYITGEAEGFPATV
UniProt P05067, whole entry, looked up: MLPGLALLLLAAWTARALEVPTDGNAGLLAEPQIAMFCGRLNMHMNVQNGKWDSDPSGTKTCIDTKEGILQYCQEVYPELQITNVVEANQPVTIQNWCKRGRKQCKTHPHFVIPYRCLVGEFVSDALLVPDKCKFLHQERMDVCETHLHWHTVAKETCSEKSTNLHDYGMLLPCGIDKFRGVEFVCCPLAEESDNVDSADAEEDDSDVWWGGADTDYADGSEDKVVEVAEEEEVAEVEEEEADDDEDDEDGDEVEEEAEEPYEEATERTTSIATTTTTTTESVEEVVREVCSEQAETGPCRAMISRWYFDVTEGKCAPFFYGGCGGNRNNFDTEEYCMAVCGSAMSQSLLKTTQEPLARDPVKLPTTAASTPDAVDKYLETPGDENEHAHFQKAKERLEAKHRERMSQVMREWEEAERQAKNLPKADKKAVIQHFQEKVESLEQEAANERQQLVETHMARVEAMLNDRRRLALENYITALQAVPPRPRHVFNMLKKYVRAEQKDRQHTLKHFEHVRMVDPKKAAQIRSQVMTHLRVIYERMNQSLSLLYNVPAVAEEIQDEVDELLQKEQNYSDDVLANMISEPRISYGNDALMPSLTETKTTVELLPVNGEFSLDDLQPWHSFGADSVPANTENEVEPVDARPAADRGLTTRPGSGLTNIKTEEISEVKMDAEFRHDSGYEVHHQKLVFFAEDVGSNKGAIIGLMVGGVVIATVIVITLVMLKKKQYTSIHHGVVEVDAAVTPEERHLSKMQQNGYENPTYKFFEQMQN
UniProt P05067, 672-713 limits assumed: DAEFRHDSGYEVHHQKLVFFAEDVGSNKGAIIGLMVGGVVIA
UniProt O00167, whole entry: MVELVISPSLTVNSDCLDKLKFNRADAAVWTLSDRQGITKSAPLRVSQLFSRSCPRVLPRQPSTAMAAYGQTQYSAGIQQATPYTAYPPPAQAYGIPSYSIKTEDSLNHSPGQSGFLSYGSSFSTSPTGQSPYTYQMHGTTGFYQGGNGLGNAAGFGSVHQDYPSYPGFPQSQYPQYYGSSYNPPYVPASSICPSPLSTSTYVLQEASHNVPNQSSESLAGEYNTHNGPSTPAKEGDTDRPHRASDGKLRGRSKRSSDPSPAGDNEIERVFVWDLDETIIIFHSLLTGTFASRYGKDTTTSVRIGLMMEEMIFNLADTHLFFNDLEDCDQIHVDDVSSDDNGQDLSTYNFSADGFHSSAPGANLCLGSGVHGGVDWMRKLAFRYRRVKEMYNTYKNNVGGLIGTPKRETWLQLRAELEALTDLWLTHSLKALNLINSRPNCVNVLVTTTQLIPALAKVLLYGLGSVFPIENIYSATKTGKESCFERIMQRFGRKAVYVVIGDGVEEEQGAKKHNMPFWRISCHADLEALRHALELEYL
UniProt A0A381MCS3, 1-451: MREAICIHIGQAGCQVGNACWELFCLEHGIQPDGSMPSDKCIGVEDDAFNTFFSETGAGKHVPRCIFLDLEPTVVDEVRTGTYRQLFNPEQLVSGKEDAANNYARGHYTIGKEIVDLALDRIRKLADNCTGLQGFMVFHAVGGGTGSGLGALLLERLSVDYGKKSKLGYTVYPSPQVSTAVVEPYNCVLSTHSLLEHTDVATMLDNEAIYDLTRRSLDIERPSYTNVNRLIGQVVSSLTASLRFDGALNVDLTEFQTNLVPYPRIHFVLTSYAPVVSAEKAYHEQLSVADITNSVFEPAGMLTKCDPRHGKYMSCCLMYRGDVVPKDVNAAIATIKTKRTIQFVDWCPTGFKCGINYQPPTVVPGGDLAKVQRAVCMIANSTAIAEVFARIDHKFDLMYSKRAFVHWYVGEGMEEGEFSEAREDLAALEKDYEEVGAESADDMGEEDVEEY
UniProt A4HTR0, 1-443: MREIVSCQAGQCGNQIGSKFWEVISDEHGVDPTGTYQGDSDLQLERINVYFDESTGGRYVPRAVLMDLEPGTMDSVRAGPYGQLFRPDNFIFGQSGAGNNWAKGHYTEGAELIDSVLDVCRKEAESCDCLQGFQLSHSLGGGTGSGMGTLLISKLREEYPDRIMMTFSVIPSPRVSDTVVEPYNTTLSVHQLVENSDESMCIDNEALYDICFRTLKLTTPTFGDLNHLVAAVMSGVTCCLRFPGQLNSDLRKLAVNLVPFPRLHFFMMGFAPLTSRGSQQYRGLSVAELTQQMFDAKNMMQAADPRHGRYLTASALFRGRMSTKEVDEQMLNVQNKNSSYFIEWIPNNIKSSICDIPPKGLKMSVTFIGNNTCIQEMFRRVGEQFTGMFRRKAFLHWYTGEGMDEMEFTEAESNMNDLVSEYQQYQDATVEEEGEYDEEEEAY
UniProt P28300, whole entry, looked up: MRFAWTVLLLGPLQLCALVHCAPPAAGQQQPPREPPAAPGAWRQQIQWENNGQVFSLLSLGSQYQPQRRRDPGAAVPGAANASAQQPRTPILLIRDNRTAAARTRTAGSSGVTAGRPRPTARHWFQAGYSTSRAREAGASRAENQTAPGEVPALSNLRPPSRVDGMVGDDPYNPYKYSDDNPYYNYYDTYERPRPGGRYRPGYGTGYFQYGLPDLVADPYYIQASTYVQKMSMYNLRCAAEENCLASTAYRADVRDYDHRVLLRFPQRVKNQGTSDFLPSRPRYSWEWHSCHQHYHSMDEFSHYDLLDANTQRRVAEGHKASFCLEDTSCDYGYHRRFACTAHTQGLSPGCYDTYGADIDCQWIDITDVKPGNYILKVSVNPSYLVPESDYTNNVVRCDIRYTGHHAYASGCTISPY
UniProt Q6P5Z2, whole entry: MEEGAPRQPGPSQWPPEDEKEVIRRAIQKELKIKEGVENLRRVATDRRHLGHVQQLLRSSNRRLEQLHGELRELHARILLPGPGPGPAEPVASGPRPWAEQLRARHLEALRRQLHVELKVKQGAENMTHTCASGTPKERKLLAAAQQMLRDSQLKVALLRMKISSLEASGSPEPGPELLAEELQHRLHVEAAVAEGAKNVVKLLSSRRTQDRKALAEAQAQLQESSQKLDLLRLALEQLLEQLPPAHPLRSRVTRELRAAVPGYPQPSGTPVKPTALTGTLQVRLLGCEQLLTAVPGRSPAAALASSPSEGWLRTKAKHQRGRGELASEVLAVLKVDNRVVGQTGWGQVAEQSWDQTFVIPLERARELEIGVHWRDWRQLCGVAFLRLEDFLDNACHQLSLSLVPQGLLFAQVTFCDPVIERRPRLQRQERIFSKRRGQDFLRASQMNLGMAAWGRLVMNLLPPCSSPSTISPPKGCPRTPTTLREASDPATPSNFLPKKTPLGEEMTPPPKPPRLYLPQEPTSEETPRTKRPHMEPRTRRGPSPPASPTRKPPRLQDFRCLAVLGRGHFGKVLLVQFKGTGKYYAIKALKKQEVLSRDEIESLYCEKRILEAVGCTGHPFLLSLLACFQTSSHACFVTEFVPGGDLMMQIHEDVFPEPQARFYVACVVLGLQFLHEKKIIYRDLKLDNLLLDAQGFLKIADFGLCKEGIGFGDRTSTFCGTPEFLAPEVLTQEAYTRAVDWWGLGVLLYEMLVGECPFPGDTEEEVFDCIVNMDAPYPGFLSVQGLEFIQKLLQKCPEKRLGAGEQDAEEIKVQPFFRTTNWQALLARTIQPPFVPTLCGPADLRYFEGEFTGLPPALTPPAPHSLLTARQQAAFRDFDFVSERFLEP
UniProt P10747, whole entry, looked up: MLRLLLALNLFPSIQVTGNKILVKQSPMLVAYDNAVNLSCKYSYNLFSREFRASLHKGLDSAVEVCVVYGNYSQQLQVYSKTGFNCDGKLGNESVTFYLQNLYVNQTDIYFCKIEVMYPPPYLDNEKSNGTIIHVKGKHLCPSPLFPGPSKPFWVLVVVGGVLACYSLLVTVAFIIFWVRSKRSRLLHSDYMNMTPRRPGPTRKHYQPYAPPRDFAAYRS
UniProt O75874, whole entry R132H: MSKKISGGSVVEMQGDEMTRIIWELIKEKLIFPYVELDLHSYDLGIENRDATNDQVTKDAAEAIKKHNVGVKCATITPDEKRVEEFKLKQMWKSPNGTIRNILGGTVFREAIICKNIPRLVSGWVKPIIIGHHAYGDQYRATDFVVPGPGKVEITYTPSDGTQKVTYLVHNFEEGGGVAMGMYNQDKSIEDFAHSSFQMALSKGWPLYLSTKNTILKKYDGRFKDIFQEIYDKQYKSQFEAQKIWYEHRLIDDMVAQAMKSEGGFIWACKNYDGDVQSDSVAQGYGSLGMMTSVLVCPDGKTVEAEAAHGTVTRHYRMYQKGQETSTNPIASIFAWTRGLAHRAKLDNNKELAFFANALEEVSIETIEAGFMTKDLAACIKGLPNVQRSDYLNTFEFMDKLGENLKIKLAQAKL
UniProt Q99572, whole entry: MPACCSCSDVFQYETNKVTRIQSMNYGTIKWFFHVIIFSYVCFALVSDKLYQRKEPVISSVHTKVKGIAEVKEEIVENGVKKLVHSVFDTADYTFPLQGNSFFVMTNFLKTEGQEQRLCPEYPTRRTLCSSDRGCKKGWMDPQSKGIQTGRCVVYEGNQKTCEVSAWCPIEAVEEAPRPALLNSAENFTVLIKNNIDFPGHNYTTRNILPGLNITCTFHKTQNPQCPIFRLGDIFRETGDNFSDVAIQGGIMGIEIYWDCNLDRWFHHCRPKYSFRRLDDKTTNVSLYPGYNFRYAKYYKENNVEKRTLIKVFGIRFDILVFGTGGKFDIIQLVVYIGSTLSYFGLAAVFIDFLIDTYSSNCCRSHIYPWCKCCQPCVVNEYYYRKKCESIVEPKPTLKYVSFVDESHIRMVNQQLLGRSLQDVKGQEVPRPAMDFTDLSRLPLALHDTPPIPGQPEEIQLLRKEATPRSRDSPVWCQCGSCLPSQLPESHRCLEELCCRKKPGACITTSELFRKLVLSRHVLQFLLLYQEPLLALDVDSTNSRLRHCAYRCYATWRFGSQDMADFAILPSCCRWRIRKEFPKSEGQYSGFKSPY
UniProt Q92879, 1-187 limits assumed: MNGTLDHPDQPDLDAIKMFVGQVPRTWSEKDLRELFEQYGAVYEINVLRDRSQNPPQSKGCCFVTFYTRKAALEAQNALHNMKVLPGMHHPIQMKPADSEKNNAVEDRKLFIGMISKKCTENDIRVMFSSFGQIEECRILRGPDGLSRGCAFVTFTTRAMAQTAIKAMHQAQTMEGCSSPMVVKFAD
UniProt P14902, whole entry: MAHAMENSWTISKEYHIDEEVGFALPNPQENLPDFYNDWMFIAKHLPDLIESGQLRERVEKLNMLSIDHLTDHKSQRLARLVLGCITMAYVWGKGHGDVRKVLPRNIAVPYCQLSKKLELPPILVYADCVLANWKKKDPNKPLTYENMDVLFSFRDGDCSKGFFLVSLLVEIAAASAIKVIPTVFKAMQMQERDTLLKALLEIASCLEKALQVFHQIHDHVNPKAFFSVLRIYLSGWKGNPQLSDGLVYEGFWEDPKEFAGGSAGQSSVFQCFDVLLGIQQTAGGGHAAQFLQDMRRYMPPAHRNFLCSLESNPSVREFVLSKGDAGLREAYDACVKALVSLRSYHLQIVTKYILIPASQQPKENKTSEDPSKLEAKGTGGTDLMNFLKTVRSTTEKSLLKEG
UniProt O00748, 27-559 limits assumed: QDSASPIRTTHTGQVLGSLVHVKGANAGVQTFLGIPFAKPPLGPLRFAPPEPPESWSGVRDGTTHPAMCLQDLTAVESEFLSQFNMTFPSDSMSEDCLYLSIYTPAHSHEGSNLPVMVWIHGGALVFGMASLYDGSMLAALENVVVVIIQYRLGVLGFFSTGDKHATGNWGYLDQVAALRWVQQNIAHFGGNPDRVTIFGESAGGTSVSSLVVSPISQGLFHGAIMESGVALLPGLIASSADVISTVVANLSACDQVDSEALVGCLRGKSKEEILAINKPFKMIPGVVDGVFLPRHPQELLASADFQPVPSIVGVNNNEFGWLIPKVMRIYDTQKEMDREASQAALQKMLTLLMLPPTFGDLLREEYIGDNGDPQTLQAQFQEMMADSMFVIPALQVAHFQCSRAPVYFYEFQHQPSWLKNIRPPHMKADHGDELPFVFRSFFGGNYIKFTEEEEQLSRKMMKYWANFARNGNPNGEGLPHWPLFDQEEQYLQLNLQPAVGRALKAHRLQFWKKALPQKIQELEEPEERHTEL

SMILES | tested on | test | test system | setting | measurement | value
O=C(Nc1ccc(-c2nc3ccc(NC(=O)C4CCOCC4)cc3s2)cc1)C1CCOCC1 | Moesin, with CD44 (Homo sapiens, UniProt P26038) | MSN-CD44 interaction, inhibitor, TR-FRET |  | with: CD44 | IC50 | > 20 µM
C[C@@H](CC(=O)NCc1cccc2ccccc12)NC(=O)[C@H](CC(=O)NC(C)(C)C)NC(=O)OC(C)(C)C | Proteasome component C5/PSMB8 (Homo sapiens, UniProt P20618+P28062) | enzyme activity, inhibitor |  | with: Ac-ANW-AMC | IC50 | 0.135 ± 0.022 µM
O=C(/C=C/c1ccc(O)c(OC(F)(F)F)c1)C(CCCOC1CCCCO1)C(=O)/C=C/c1ccc(O)c(OC(F)(F)F)c1 (stereo not shown) | Amyloid-beta precursor protein, Aβ aggregates (APP, Homo sapiens, UniProt P05067) | binding, thioflavin T competition |  |  | IC50 | 0.31 µM
O=C(N/N=C/c1ccc(Sc2ncccn2)o1)c1cccc(Br)c1 | Protein phosphatase EYA2 (Homo sapiens, UniProt O00167) | tyrosine phosphatase activity, inhibitor |  |  | IC50 | 0.55 µM
COc1cc([C@@H]2c3cc4c(cc3C=C(C=O)[C@H]2C(=O)OCCCCCCBr)OCO4)cc(OC)c1OC | Tubulin alpha/beta heterodimer (Leishmania infantum, UniProt A0A381MCS3+A4HTR0) | tubulin polymerization, inhibitor |  | 37 °C, with: tubulin 1.2 mg/mL | IC50 | 7 ± 0.7 µM
COc1ccc(-c2nc(S(C)(=O)=O)nn2-c2ccc(OC)cc2)cc1 | Prostaglandin G/H synthase 2 (Macaca mulatta, UniProt F7BWZ9) | PGE2 production, inhibitor, enzyme immunoassay | monkey whole blood |  | IC50 | > 1 µM
CC(C)CNC(=O)CSc1nc2ccc(NC(=O)CSc3cccc(Cl)c3)cc2s1 | ESR1 | reporter gene, antagonist | HEC-1 transfected ERα luciferase reporter |  | IC50 | 20 to 50 µM
N=C(N)NCCC[C@H](NC(=O)c1cc(C(=O)O)cc([C@H]2CCN[C@@H]2C(=O)O)c1)C(=O)O | kainate receptor (rat) | binding, radioligand binding | rat cortical synaptosomes | with: [3H]kainate | IC50 | 10 µM
CC(C)n1nnc(-c2cc(O)cc(Nc3ncnn4ccc(CN5CCC(N)CC5)c34)c2)n1 |  |  | mouse, brain | subcutaneous, 60 mg/kg, 90 min | total brain concentration | 0.15 ± 0.03 µM
COc1ccc(Nc2nc(-c3sc(N)nc3C)cs2)cc1 | Protein-lysine 6-oxidase (Homo sapiens, UniProt P28300) | LOX activity, inhibitor | MDA-MB-231 |  | IC50 | 7.5 µM
Nc1ncc(-c2ccc3ncnc(N4CCc5cc(F)c(Cl)cc54)c3c2)cn1 |  |  | CD1 mouse, plasma | oral, 100 mg/kg | AUC(0-t) | 26500 ng·h/mL
COC(=O)[C@@]1(C)C=C(C(=O)Nc2cccc(C(=O)NC34CC(Nc5nccc(-c6cccnc6)n5)(C3)C4)c2)C(=O)CC1 | MAPK8 (Homo sapiens, UniProt P45983) | kinase activity, inhibitor |  | 8.363e-05 µM, with: 10 mM GSH | remaining activity | 1.02 fraction of control
O=C(Nc1ccc(Cl)cc1)C(NS(=O)(=O)c1cccs1)c1ccc(Cl)cc1 (stereo not shown) | Uracil nucleotide/cysteinyl leukotriene receptor, long isoform (GPR17, Homo sapiens, UniProt Q13304) | calcium mobilization, antagonist | 1321-N1 |  | IC50 | 9.98 ± 1.54 µM
CC[C@H](C)[C@@H]1NC(=O)[C@H](Cc2ccc(O)cc2)NC(=O)CCSCC(=O)CSCCNC(=O)[C@H](Cc2c[nH]cn2)NC(=O)[C@H](Cc2ccc(O)cc2)NC(=O)[C@H](CC(=O)O)NC(=O)[C@H](Cc2ccc(O)cc2)NC(=O)[C@H](CC(C)C)NC(=O)[C@H](CCCNC(=N)N)NC1=O | Melanoma-associated antigen 4, MAGE homology domain (Homo sapiens, UniProt P43358) | peptide binding, inhibitor, TR-FRET |  | with: Alexa647-MTP-1 peptide | IC50 | 0.317 ± 0.14 µM
CN(C)c1ccc(C=NN=C2NC(=O)C(CC(=O)Nc3ccc(C(=O)O)cc3)S2)cc1 (stereo not shown) | PPP3CA (Homo sapiens, UniProt Q08209) | phosphatase activity, inhibitor, malachite green |  | with: phosphopeptide substrate at Km | IC50 | > 500 µM
NC(=O)c1cn(-c2ccc(F)cc2)c2ccc(CN3CCSCC3)cc2c1=O | Grm2 (Rattus norvegicus, UniProt P31421) | calcium mobilization, negative allosteric modulator |  |  | IC50 | 0.42 µM
CC(C)[C@H](N)c1nc2cc(-c3cc[nH]c3)sc2c(=O)[nH]1 | CDC7 (Homo sapiens, UniProt O00311) | enzyme activity, inhibitor |  |  | IC50 | > 10 µM
COc1ccc2nccc(Nc3ccc(NC(=O)c4ccc(C)cc4)c(O)c3)c2c1 | PKN3 (Homo sapiens, UniProt Q6P5Z2) | binding, split-luciferase |  |  | IC50 | > 50 µM
COC(=O)Nc1ccc(-c2nc3ccc(NC(=O)OC)cc3s2)cc1 | Tyrosine-protein kinase SYK, with FCER1G (SYK, Homo sapiens, UniProt P43405) | protein binding, inhibitor, TR-FRET |  |  | IC50 | 5.4 µM
Cc1cc(SCc2sc(-c3ccc(OC(F)(F)F)cc3)nc2C)ccc1OCC(=O)O | HEK293T |  |  | 18 h | CC50 | > 50 µM
CN1CCN(Cc2ccc(NC(=O)c3cncc(C#Cc4c(N)ncc5ccc(F)cc45)c3)cc2C(F)(F)F)CC1 | Kinesin-1 heavy chain/ Tyrosine-protein kinase receptor RET (RET/KIF5B, Homo sapiens, UniProt P07949+P33176, G810R) | cell viability, inhibitor, CellTiter-Glo | Ba/F3 KIF5B-RET G810R |  | IC50 | 0.0465 ± 0.00189 µM
FC(F)(F)c1ccccc1CCN1CCN(c2cc(N3CCCC3)nc(N3CCCC3)n2)CC1 | Caspase-1 (CASP1, Homo sapiens, UniProt P29466) | enzyme activity, inhibitor |  | 30 min preincubation, with: Ac-WEHD-AMC 10 µM | IC50 | 0.197 ± 0.025 µM
C=C(C)C1CCC(C)=CC1c1c(O)cc(O)c2c(=O)c(-c3ccc(O)cc3)coc12 (stereo not shown) | Beta-secretase 1 (BACE1, Homo sapiens, UniProt P56817) | enzyme activity, inhibitor, enzyme fragment complementation chemiluminescence, item: amyloid precursor protein cleavage |  | 16 h | IC50 | > 90 µM
O=C(O)CCC(NS(=O)(=O)C(F)(F)F)C(=O)O (stereo not shown) | FOLH1 (Homo sapiens, UniProt Q04609) | enzyme activity, inhibitor, HPLC |  | 15 min, pH 7.4, 37 °C, 1% Triton X-100, with: 10 mM glutamate dipeptide substrate | IC50 | > 100 µM
Cc1n[nH]c(C)c1CCOC(=O)c1cccc2c1oc(=O)n2C | CD28, with B7 (Homo sapiens, UniProt P10747) | luciferase reporter gene, blocker | Jurkat with Raji cells | 5 h | IC50 | 5.2 ± 1.3 µM

SMILES | tested on | test | test system | setting | measurement | value
N#Cc1ccc2[nH]cc(/C=C/c3cccc([N+](=O)[O-])c3)c2c1 | APP amyloid-beta peptide | Aβ42 oligomerisation, ELISA |  |  | IC50 | 11.7 µM
CN1CC[C@H](c2c(O)cc(O)c3c(=O)cc(-c4cccc(Cl)c4)oc23)[C@H](O)C1 | Cyclin-dependent kinase 9, with cyclin T1 (CDK9, Homo sapiens, UniProt P50750) | inhibitor |  | with cyclin T1, GST-CTD substrate | IC50 | 0.0044 µM
COc1ccc2[nH]cc(/C=C/c3c[nH]c4ccccc34)c2c1 | APP amyloid-beta peptide | Aβ42 oligomerisation, ELISA |  |  | IC50 | 9.2 µM
C[C@H](Nc1nc(N[C@H](C)C2CC2)nc(-c2cccc(C(F)(F)F)n2)n1)C1CC1 | Isocitrate dehydrogenase [NADP] cytoplasmic, homodimer (IDH1, Homo sapiens, UniProt O75874, R132H) | enzyme activity, inhibitor, diaphorase/resazurin coupled |  |  | IC50 | 0.058 µM
COc1ccc(S(=O)(=O)Oc2ccccc2NC(=O)c2cnccn2)cc1 | P2X purinoceptor 7 (P2RX7, Homo sapiens, UniProt Q99572) | calcium mobilisation, antagonist | MCF7 transfected with target | with: Bz-ATP 100 µM | IC50 | 2.28 ± 0.231 µM
COc1ccc2[nH]c3c(C)c4cc[n+](C)cc4c(C)c3c2c1 | Toll-like receptor 3 (Homo sapiens, UniProt O15455) | reporter gene, SEAP reporter | HEK-Blue hTLR3 | with: poly(I:C) | IC50 | 14.3 ± 3.29 µM
N#Cc1cccc(OC(=O)N2CC(OC(c3ccccc3)c3ccccc3)C2)c1 | MGLL (Homo sapiens, UniProt Q99685) | inhibitor, fluorescence |  | with: AHMMCE substrate | IC50 | 0.059 ± 0.0026 µM
CN1CC[C@H](c2c(O)cc(O)c3c(=O)cc(-c4ccccc4F)oc23)[C@H](O)C1 | Protein kinase C beta type, isoform beta-II (PRKCB, Homo sapiens, UniProt P05771) |  |  | ATP at Km | IC50 | > 10 µM
O=C(Nc1ccc2cc(NC(=O)C(F)(F)F)nc(Br)c2c1)C(F)(F)F | CUGBP Elav-like family member 1, RRM1/2 (CELF1, Homo sapiens, UniProt Q92879) | RRM1/2-RNA binding, inhibitor, fluorescence polarization |  | with: Cy3 GU RNA probe | IC50 | 12.3 µM
Cc1ccc(SCC(=O)Nc2ccc3nc(SCC(=O)NC(C)C)sc3c2)c(C)c1 | ESR1 | reporter gene, antagonist | HEC-1 transfected ERα luciferase reporter |  | IC50 | 20 to 50 µM
Cc1ccccc1OCCCSCc1nc2ccccc2[nH]1 | CHD1L (Homo sapiens, UniProt Q86WJ1) | ATPase activity, inhibitor |  | 1 h, 37 °C, with: ATP 10 µM | IC50 | 2.29 µM
O=C(O)c1cc(C(=O)N[C@@H](Cc2ccc(O)cc2)C(=O)O)cc([C@H]2CCN[C@@H]2C(=O)O)c1 | AMPA receptor (rat) | binding, radioligand binding | rat cortical synaptosomes | with: [3H]AMPA | IC50 | 10 µM
N#Cc1cccc(N2CCN(C(=O)CCCCCn3c(=S)[nH]c4ccccc4c3=O)CC2)c1 | ESR1 | reporter gene, antagonist | HEC-1 cells transfected with ERα | with: estradiol 1 nM | IC50 | 9.9 µM
OC[C@H]1[C@@H](O)[C@H](O)[C@@H](O)CN1CCCCCOCc1ccc(Br)cc1 | GBA1 (Homo sapiens, UniProt P04062, R534H) | inhibitor, 4-methylumbelliferyl glucoside |  |  | IC50 | 100 µM
CNC(=O)[C@@H](NC(=O)[C@@H]1CN(C(=O)c2cnn(Cc3ccccc3)c2)CC12CN(C(=O)[C@H]1CC1(C)C)C2)[C@@H](C)OCCC1CCCCC1 | Cyclin-dependent kinase 2/cyclin E1 (Homo sapiens, UniProt P24864+P24941) | kinase activity, inhibitor, ADP-Glo |  |  | IC50 | 0.13 µM
COCC#Cc1cc(-c2nn(-c3nc(C(=O)O)cs3)c(CC3CC3)c2Cc2ccc(S(N)(=O)=O)c(F)c2)ccc1F | LDHA (Homo sapiens, UniProt P00338) | enzyme activity, inhibitor |  |  | IC50 | 0.005 µM
CCC(=O)n1ccc2cc(-c3csc(NC(=O)c4cc(OC)cc(OC)c4)n3)ccc21 | Scavenger receptor class B member 1 (Mus musculus, UniProt Q61009) | DiI-HDL uptake, inhibitor | mouse cells | with: DiI-HDL | IC50 | 0.089 µM
CC(=O)Nc1ccc(NC(=O)C(C)Sc2nnc(Nc3ccccc3F)s2)cc1 (stereo not shown) | CD28, with CD80 (Homo sapiens, UniProt P10747) | CD28–CD80 binding, inhibitor, competitive ELISA |  | with: biotinylated CD80 | IC50 | 86.7 µM
N#Cc1ccc2[nH]cc(/C=C/c3c[nH]c4ccccc34)c2c1 | IDO1 (Homo sapiens, UniProt P14902) | enzyme activity, inhibitor |  |  | IC50 | 1.2 µM
Nc1nonc1-n1cc(C(=O)N/N=C/c2cccs2)nn1 | SIRT6 (Homo sapiens, UniProt Q8N6T7) | deacetylase activity, inhibitor, Fluor de Lys |  | with: Ac-RHKK(Ac)-AMC substrate | IC50 | 35.6 ± 9.03 µM
Clc1ccc(C2(c3ccc(-c4cccnc4)cc3)CCNCC2)cc1 | LATS2 (Homo sapiens, UniProt Q9NRM7) | kinase activity, inhibitor, radiometric HotSpot |  | with: ATP 10 µM | IC50 | > 10 µM
CCN1C(=O)c2ccccc2N(C)c2nc(Nc3ccc(N4CCN(C)CC4)cc3OC)ncc21 | TNK2 (Homo sapiens, UniProt Q07912) | binding, inhibitor, LanthaScreen binding |  |  | IC50 | 0.545 µM
CCCCCN(C)C(=O)Oc1ccccc1C=C1Cc2cc(OC)c(OC)cc2C1=O | Cocaine esterase (CES2, Homo sapiens, UniProt O00748) | inhibitor |  | 33 min preincubation, with: fluorescein diacetate | IC50 | 0.00544 ± 0.00057 µM
CCCSc1nc(N[C@@H]2C[C@H]2c2ccc(F)c(F)c2)c2nnn([C@@H]3C[C@H](O)[C@@H](O)[C@H]3O)c2n1 |  |  | rat, female, plasma | oral, 60 mg/kg/day ticagrelor, day 1 | AUC | 30.8 µM·h

Repeated from above:
SMILES | tested on | test | test system | setting | measurement | value
C=C(C)C1CCC(C)=CC1c1c(O)cc(O)c2c(=O)c(-c3ccc(O)cc3)coc12 (stereo not shown) | Beta-secretase 1 (BACE1, Homo sapiens, UniProt P56817) | enzyme activity, inhibitor, enzyme fragment complementation chemiluminescence, item: amyloid precursor protein cleavage |  | 16 h | IC50 | > 90 µM
O=C(O)CCC(NS(=O)(=O)C(F)(F)F)C(=O)O (stereo not shown) | FOLH1 (Homo sapiens, UniProt Q04609) | enzyme activity, inhibitor, HPLC |  | 15 min, pH 7.4, 37 °C, 1% Triton X-100, with: 10 mM glutamate dipeptide substrate | IC50 | > 100 µM
Cc1n[nH]c(C)c1CCOC(=O)c1cccc2c1oc(=O)n2C | CD28, with B7 (Homo sapiens, UniProt P10747) | luciferase reporter gene, blocker | Jurkat with Raji cells | 5 h | IC50 | 5.2 ± 1.3 µM
N#Cc1ccc2[nH]cc(/C=C/c3cccc([N+](=O)[O-])c3)c2c1 | APP amyloid-beta peptide | Aβ42 oligomerisation, ELISA |  |  | IC50 | 11.7 µM
CN1CC[C@H](c2c(O)cc(O)c3c(=O)cc(-c4cccc(Cl)c4)oc23)[C@H](O)C1 | Cyclin-dependent kinase 9, with cyclin T1 (CDK9, Homo sapiens, UniProt P50750) | inhibitor |  | with cyclin T1, GST-CTD substrate | IC50 | 0.0044 µM
